Assay results gathered from unrelated publications.
Parts stem from different laboratories: compare values within a part only. Substitutions count along the parent as printed.

Series 1 — method: DHFR PCA, deep sequencing; sample: yeast; with: (+)-ABA 0.39 µM; relative to: wild-type fitted maximum; reading: higher = stronger binding
Target: ABI1, truncated, D143A, DHFR fusion (Arabidopsis thaliana)
Notes: methotrexate growth selection, single substitutions
Starting sequence: PYL1, truncated, DHFR fusion (Arabidopsis thaliana); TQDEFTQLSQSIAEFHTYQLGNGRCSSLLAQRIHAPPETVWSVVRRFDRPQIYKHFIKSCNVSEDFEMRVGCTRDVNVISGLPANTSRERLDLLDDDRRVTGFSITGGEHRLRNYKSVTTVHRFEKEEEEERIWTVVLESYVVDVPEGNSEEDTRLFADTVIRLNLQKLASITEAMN; partner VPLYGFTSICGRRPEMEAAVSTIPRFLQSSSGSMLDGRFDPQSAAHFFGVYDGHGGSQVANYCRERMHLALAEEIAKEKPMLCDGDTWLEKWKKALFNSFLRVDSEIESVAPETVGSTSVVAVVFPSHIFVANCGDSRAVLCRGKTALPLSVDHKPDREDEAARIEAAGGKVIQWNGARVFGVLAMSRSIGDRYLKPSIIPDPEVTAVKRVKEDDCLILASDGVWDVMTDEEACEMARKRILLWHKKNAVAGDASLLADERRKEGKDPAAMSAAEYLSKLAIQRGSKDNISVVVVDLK
Substitution	relative binding score
S171W	9.25%
S26E	-8.9%
F47R	-12%
F5V	40.5%
T86I	38.5%
I133E	74.1%
Y18I	0.845%
Y141A	-4.22%
S42R	25.9%
M176C	8.25%
G71S	-7.54%
R49F	-6.63%
V137N	5.21%
H110L	12.4%

Series 2 — target: CCNE1, cyclin fold, Cln2 fusion (human); method: yeast growth competition, sequencing; sample: yeast; notes: weak parent motif; relative to: not given; reading: higher = stronger binding
Starting sequence: WEE1 docking peptide (human); CTLRQKLIFSPCS
Substitution	normalised enrichment score
CTLRQKLIFSPAS [C12A]	0.298
CTLRQKLIFSACS [P11A]	0.522
CTLAQKLIFSPCS [R4A]	0.326
CTLRQKLIFSPCA [S13A]	0.547
CTLRQKAIFSPCS [L7A]	0.223
CTLRQKLIFAPCS [S10A]	0.567

Series 3 — method: RNA Bind-n-Seq; molecule type: RNA; sample: in vitro; concentration: 200 nM; notes: whole 134-nt RNA, ends assumed; with: 150 mM KCl; relative to: input library; reading: higher = stronger binding
Target: Fragile X messenger ribonucleoprotein 1, C-terminal low-complexity region (Fmr1, Mus musculus, UniProt P35922)
Oligonucleotide	log2 enrichment
GGGAGUUCUACAGUCCGACGAUCUGGGAGGUGGAUUUUGUUUAUUUUUUUUGCUCAUUUCCAGGGGUGGGAAUUUUUUUUUAAUAUGUGUCAUGAAUAAAGUUGUUUUUGAAAUGGAAUUCUCGGGUGUCAAGG	0.28
GGGAGUUCUACAGUCCGACGAUCAGUCCUGUGCUACACAUCGUAUGUACCGAAUCGGGUUUUUGGUUUUUGGUUUUUGGGAAAGUAUUAUGUUACGCCGUUCGGAUCUGCACUUGGAAUUCUCGGGUGUCAAGG	-0.8
GGGAGUUCUACAGUCCGACGAUCAGUCCUGUGCUACACAUCGUAUGUACCGAAUCAAAUUUUUAAACCCAAACCCCCAAAAAAGUAUUAUGUUACGCCGUUCGGAUCUGCACUUGGAAUUCUCGGGUGUCAAGG	-0.297
GGGAGUUCUACAGUCCGACGAUCCCUCAAGUCCUGUGCUACACAUCGUAUGUACCGAAUCGGGAAGGAAGGGAAGGAAAGUAUUAUGUUACGCCGUUCGGAUCUGCACUUCCAUGGAAUUCUCGGGUGUCAAGG	-0.188

Series 4 — method: protein binding microarray; molecule type: double-stranded DNA, one strand shown; sample: in vitro; concentration: not given; relative to: not given; reading: higher = stronger binding
Target: Histone acetyltransferase KAT6A, both winged helices, GST fusion (KAT6A, Homo sapiens, UniProt Q92794, residues 1-181)
Notes: 8-mer, flanks averaged, mean of 2 arrays, mostly near background
Target sequence (chain): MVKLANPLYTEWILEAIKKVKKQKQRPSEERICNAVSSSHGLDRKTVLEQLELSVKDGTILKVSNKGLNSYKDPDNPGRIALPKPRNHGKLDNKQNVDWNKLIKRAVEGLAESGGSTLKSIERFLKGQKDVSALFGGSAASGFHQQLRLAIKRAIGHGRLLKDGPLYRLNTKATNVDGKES
Oligonucleotide	E-score
AGAGCTAT	-0.133
ATGCCACG	0.00034
AGCCATTA	-0.0941
CCTTTGTC	-0.0984
AAGCCAGT	-0.357
GCAAAGCC	-0.0301
AGAATCTG	-0.124
AGTCTCAT	-0.247
GTTCAAAC	0.125
CATCCCCA	-0.229
ATCGAAGA	0.0837
ATCACGGA	0.164
GACGCATA	0.208
CGTGTATA	0.125
AAAACTGG	-0.108
TCTAGTCA	-0.108
GCTATCTA	-0.00734
AAGTTACT	-0.144
ACTTGGCT	-0.254
CCTCTGGC	-0.203
CAACATCA	-0.117
CACGCGTG	0.231
AAGAAGGA	-0.114

Series 5 — method: universal PBM; molecule type: double-stranded DNA, one strand shown; sample: in vitro; concentration: 600 nM; reading: higher = stronger binding
Target: Sal-like protein 4, full length isoform A (SALL4, Homo sapiens, UniProt Q9UJQ4, residues 1-1053)
Sequence of UniProt Q9UJQ4 (whole entry, looked up): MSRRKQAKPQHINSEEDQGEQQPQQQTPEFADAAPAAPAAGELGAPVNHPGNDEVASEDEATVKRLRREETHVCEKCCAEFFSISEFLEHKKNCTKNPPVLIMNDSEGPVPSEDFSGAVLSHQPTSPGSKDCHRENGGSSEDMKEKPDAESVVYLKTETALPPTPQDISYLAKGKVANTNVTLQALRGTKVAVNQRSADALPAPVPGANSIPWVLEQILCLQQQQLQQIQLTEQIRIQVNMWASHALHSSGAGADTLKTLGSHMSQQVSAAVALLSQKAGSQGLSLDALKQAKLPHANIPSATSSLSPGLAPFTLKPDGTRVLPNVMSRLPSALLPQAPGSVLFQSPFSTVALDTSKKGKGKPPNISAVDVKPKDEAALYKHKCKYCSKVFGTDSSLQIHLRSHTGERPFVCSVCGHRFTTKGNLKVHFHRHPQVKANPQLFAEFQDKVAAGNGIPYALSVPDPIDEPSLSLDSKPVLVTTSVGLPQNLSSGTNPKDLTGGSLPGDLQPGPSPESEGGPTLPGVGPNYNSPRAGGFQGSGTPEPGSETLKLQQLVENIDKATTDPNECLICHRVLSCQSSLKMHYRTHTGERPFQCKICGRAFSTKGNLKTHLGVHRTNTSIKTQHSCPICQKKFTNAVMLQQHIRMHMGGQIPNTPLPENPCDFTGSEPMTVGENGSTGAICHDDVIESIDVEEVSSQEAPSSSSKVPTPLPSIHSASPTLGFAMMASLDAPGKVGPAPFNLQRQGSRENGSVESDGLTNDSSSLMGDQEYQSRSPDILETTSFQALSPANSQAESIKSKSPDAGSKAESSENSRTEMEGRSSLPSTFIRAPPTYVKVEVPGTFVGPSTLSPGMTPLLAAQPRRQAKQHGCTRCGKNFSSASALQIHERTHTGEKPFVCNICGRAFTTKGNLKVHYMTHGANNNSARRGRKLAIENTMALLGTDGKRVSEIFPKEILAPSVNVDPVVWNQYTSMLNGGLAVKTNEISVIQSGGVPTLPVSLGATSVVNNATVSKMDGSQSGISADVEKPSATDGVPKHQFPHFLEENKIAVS
Notes: 8-mer, flanks averaged, mean of replicates
Oligonucleotide	E-score
AGGTTCAA	0.0693
ACAACCGC	-0.196
TCTTAAGA	0.149
TGAGTCAA	0.12
GTAAACAC	0.0637
CAGGCAAG	-0.141
AGATCTCA	0.0198
GGCTACCC	-0.386
CATTAGTA	0.196
ACATTAAT	0.272
ATGGGCCA	-0.137
AAAATTGT	0.346
AAGTTCCC	-0.238

Series 6 — method: RNA Bind-n-Seq; molecule type: RNA; sample: in vitro; concentration: not given; relative to: input RNA pool; reading: higher = stronger binding
Target: RING finger protein unkempt homolog, zinc fingers 1-6, GST-SBP tag (UNK, Homo sapiens, UniProt Q9C0B0, residues 30-357)
Sequence of UniProt Q9C0B0 (30-357, looked up): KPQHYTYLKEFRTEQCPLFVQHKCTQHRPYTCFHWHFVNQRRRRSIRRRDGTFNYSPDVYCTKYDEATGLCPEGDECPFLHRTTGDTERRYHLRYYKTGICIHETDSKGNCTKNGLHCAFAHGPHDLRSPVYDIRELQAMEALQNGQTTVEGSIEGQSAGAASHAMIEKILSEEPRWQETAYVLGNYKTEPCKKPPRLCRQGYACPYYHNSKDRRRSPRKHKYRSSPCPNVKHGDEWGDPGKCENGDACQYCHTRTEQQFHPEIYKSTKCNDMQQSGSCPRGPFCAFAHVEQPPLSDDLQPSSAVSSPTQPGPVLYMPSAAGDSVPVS
Notes: RNA with constant flanks, human and mouse sites, ends assumed
Shared flanks, not repeated: GGGAGUUCUACAGUCCGACGAUC … CAACAGAGGAUUGAGCAUCA
Oligonucleotide	bound/input enrichment
GAAGACUUUGGCCAAGAAAAGAAAACUGAUGAUGUUGAAGCCAUGAGUUCUCAACCAGCACUGGCUCUGGAUGAAAGGAAAUUAGGAGAUGUUUCUCCCACACAAAUAGAUGUCAGUCAG	0.215 ratio
ACACUUCGCGUUGCGUUUAGACUAUUUAUUACCGGGAUCACAGGCCUGGCCGCGGUAACAGACUUUUACAUGGAAUUGUUUAAUUAUUUGUACUUUUCAUGCCAGAAAAUAAAAGUUCAG	0.537 ratio
CACUCGAGCCAGCACCACCGUUCUCACGCCCUGAGCUGCAGACAGCUAGGCGGUUUUAUCUAGUUUGAACCAGGCUGCUGGAGCUUGCUCCCUCCCGCCCUCUCUCUUUUUUUUCCACGG	0.263 ratio
GCCAGAGGGGUUCUCAAGUGUGACAUUACAGAUCUCCAAAUCAUUUGCUCCUUGGGAUAUAGCAUUCUUCUCAUGGUCACAUGUACUGUGUAUGCCAUCAAGACUCGGGGUGUACCCGAG	0.205 ratio
CAGAAGGACCUCACGGAGUCUAAGGGAAAAAUAGUCCAGCUGGAGGGAAAGCUUGUUUCAAUAGAGAAAGAAAAGAUCGAUGAAAAAUGUGAAACAGAAAAACUCUUAGAAUACAUCCAA	0.387 ratio
UUGGAUUUCAUUUCCCCAGGUCUUCAGUGUUGAUGUAAAUGUGUUUCUGUAGUGUUGCUUAUUAGCACUUUGCGCAUUGUGUAAGUUGGGUAGCAAAAAUGGCAAAAGAGAUGCAAAAUU	0.258 ratio
CUUGUGUGUGGACACAUUUUCCUUUUUGGUUGCUCUGUCCUAUGCUUAGUGCUCUCCUAGCUUUUCUCCAAGCUCCCUGCUUUCUGGCUCUCUCAGUGUCUCCCUCUCUCUCUCUCUCUC	0.915 ratio
ACUUUUUAAGCUGUCAGUGGUAUCAAAUAACUUACCUAGUUGGAGGCAGAUAAAGGAUCCCUUACGUUUUUUCCUAUAAGGCCUAAAUUGAAAUUGUUAACCAAGGAAACAGGGUCAGCC	0.126 ratio

Some of these lines once more (series 2):
Substitution	normalised enrichment score
CTLRQKLIFSPAS [C12A]	0.298
CTLRQKLIFSACS [P11A]	0.522
CTLAQKLIFSPCS [R4A]	0.326
CTLRQKLIFSPCA [S13A]	0.547
CTLRQKAIFSPCS [L7A]	0.223
CTLRQKLIFAPCS [S10A]	0.567
